Measured values from different studies.
Numbers after ± are the reported error.

N=C(N)NCCC[C@@H]1NC(=O)[C@H](CCCCNC(=O)CNC(=O)CNC(=O)CNC(=O)CC[C@H](NC(=O)CNC(=O)CNC(=O)CNC(=O)CC[C@H](NC(=O)CN2CCN(CC(=O)O)CCN(CC(=O)O)CCN(CC(=O)O)CC2)C(=O)NCC(=O)NCC(=O)NCC(=O)N[C@@H](CCC(=O)NCC(=O)NCC(=O)NCC(=O)NCCCC[C@@H]2NC(=O)[C@@H](Cc3ccccc3)NC(=O)[C@H](CC(=O)O)NC(=O)CNC(=O)[C@H](CCCNC(=N)N)NC2=O)C(=O)NCC(=O)NCC(=O)NCC(=O)NCCCC[C@@H]2NC(=O)[C@@H](Cc3ccccc3)NC(=O)[C@H](CC(=O)O)NC(=O)CNC(=O)[C@H](CCCNC(=N)N)NC2=O)C(=O)NCC(=O)NCC(=O)NCC(=O)NCCCC[C@@H]2NC(=O)[C@@H](Cc3ccccc3)NC(=O)[C@H](CC(=O)O)NC(=O)CNC(=O)[C@H](CCCNC(=N)N)NC2=O)NC(=O)[C@@H](Cc2ccccc2)NC(=O)[C@H](CC(=O)O)NC(=O)CNC1=O [indium-111 labelled]  tissue uptake (female athymic nu/nu mice, muscle; intravenous, 0.5 h): 1.23 ± 0.42 %ID/g
CCCC[C@H](NC(=O)COCCOCCNC(=O)CN1CCN(CC(=O)O)CCN(CC(=O)O)CC1)C(=O)N[C@H]1CC(=O)NCCCC[C@@H](C(N)=O)NC(=O)[C@H](Cc2c[nH]c3ccccc23)NC(=O)[C@H](CCCNC(=N)N)NC(=O)[C@@H](Cc2ccccc2)NC(=O)[C@H](Cc2c[nH]cn2)NC1=O [copper-64 labelled]  tissue uptake (C57 mice, skin; intravenous, 0.37 MBq, 4 h): 0.46 ± 0.22 %ID/g
CCCC[C@H](NC(=O)CNC(=O)CNC(=O)CN1CCN(CC(=O)O)CCN(CC(=O)O)CCN(CC(=O)O)CC1)C(=O)N[C@H]1CC(=O)NCCCC[C@@H](C(N)=O)NC(=O)[C@H](Cc2c[nH]c3ccccc23)NC(=O)[C@H](CCCNC(=N)N)NC(=O)[C@@H](Cc2ccccc2)NC(=O)[C@H](Cc2c[nH]cn2)NC1=O [lutetium-177 labelled]  tissue uptake (C57 mouse, female, brain; intravenous, 0.037 MBq, 2 h): 0.05 ± 0.01 %ID/g
CCCC[C@H](NC(=O)CCCCCCCNC(=O)CN1CCN(CC(=O)O)CCN(CC(=O)O)CC1)C(=O)N[C@H]1CC(=O)NCCCC[C@@H](C(N)=O)NC(=O)[C@H](Cc2c[nH]c3ccccc23)NC(=O)[C@H](CCCNC(=N)N)NC(=O)[C@@H](Cc2ccccc2)NC(=O)[C@H](Cc2c[nH]cn2)NC1=O [copper-64 labelled]  tissue uptake (C57 mice, intestine; intravenous, 0.37 MBq, 4 h): 2.04 ± 0.25 %ID
N=C(N)NCCC[C@@H]1NC(=O)[C@H](CCCCNC(=O)CNC(=O)CNC(=O)CNC(=O)CC[C@H](NC(=O)CNC(=O)CNC(=O)CNC(=O)CN2CCN(CC(=O)O)CCN(CC(=O)O)CCN(CC(=O)O)CC2)C(=O)NCC(=O)NCC(=O)NCC(=O)NCCCC[C@@H]2NC(=O)[C@@H](Cc3ccccc3)NC(=O)[C@H](CC(=O)O)NC(=O)CNC(=O)[C@H](CCCNC(=N)N)NC2=O)NC(=O)[C@@H](Cc2ccccc2)NC(=O)[C@H](CC(=O)O)NC(=O)CNC1=O [indium-111 labelled]  tissue uptake (female athymic nu/nu mice, spleen; intravenous, 111 kBq, 1 h): 1.36 ± 0.13 %ID/g
CC(C)C[C@H](NC(=O)[C@H](Cc1ccc(O)cc1)NC(=O)[C@@H](CCCNC(=N)N)NC(=O)[C@@H](CO)NC(=O)[C@H](Cc1ccccc1)NC(=O)[C@H](CC1CCCCC1)NC(=O)[C@H](CC(=O)O)NC(=O)CN1CCCN2CCN(CCCN(CC(=O)O)CC2)CC1)C(=O)N[C@@H](Cc1c[nH]c2ccccc12)C(=O)N[C@@H](CO)C(=O)O [copper-64 labelled]  tissue uptake (female NMRI nude mice, blood; 1 h p.i.): 1.4 ± 0.2 %ID/g
CC(C)C[C@H](NC(=O)[C@@H](CCCCNC(=O)CCCCCNC(=O)CN1CCN(CC(=O)O)CCN(CC(=O)O)CCN(CC(=O)O)CC1)NC(=O)[C@H](Cc1ccc(O)cc1)NC(=O)[C@H](CO)NC(=O)[C@H](Cc1c[nH]c2ccccc12)NC(=O)[C@H](Cc1cnc[nH]1)NC(=O)[C@@H]1CCC(=O)N1)C(=O)N[C@@H](CCCNC(=N)N)C(=O)N1CCC[C@H]1C(=O)NCC(N)=O [indium-111 labelled]  tissue uptake (female athymic nude mouse, muscle; intravenous, 0.037 MBq, 2 h): 0.03 ± 0.03 %ID/g
N=C(N)NCCC[C@@H]1NC(=O)[C@H](CCCCNC(=O)CC[C@H](NC(=O)CC[C@H](NC(=O)CN2CCN(CC(=O)O)CCN(CC(=O)O)CCN(CC(=O)O)CC2)C(=O)N[C@@H](CCC(=O)NCCCC[C@@H]2NC(=O)[C@@H](Cc3ccccc3)NC(=O)[C@H](CC(=O)O)NC(=O)CNC(=O)[C@H](CCCNC(=N)N)NC2=O)C(=O)NCCCC[C@@H]2NC(=O)[C@@H](Cc3ccccc3)NC(=O)[C@H](CC(=O)O)NC(=O)CNC(=O)[C@H](CCCNC(=N)N)NC2=O)C(=O)NCCCC[C@@H]2NC(=O)[C@@H](Cc3ccccc3)NC(=O)[C@H](CC(=O)O)NC(=O)CNC(=O)[C@H](CCCNC(=N)N)NC2=O)NC(=O)[C@@H](Cc2ccccc2)NC(=O)[C@H](CC(=O)O)NC(=O)CNC1=O [indium-111 labelled]  tissue uptake (female athymic nu/nu mice, bone; intravenous, 0.5 h): 1.64 ± 0.17 %ID/g
CCCC[C@H](NC(=O)CNC(=O)CNC(=O)CN1CCN(CC(=O)O)CCN(CC(=O)O)CC1)C(=O)N[C@H]1CC(=O)NCCCC[C@@H](C(N)=O)NC(=O)[C@H](Cc2c[nH]c3ccccc23)NC(=O)[C@H](CCCNC(=N)N)NC(=O)[C@@H](Cc2ccccc2)NC(=O)[C@H](Cc2c[nH]cn2)NC1=O [technetium-99m labelled]  tissue uptake (C57 mouse, spleen; iv, 0.037 MBq, 24 h): 0.19 ± 0.25 %ID/g
N=C(N)NCCC[C@@H]1NC(=O)[C@H](CCCCNC(=O)CNC(=O)CNC(=O)CNC(=O)CC[C@H](NC(=O)CNC(=O)CNC(=O)CNC(=O)CN2CCN(CC(=O)O)CCN(CC(=O)O)CCN(CC(=O)O)CC2)C(=O)NCC(=O)NCC(=O)NCC(=O)NCCCC[C@@H]2NC(=O)[C@@H](Cc3ccccc3)NC(=O)[C@H](CC(=O)O)NC(=O)CNC(=O)[C@H](CCCNC(=N)N)NC2=O)NC(=O)[C@@H](Cc2ccccc2)NC(=O)[C@H](CC(=O)O)NC(=O)CNC1=O [copper-64 labelled]  tissue uptake (athymic nu/nu mouse, female, liver; intravenous, 0.5 h): 2.6 ± 0.01 %ID/g
